Experimental data pooled from the literature.
Numbered parts are unrelated; each lists some results of a single study.
Chain of UniProt P50750 (whole entry, looked up): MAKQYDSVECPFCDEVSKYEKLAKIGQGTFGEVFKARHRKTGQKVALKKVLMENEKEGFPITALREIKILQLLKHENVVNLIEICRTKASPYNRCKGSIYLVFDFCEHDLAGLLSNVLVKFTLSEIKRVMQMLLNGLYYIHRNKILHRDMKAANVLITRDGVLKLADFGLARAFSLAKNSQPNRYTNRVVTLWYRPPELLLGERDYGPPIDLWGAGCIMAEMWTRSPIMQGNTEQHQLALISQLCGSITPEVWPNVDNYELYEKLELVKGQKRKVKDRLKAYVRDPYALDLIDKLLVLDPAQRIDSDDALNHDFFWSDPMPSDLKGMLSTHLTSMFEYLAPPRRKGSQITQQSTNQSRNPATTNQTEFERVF
Chain of UniProt P31751 (whole entry, looked up): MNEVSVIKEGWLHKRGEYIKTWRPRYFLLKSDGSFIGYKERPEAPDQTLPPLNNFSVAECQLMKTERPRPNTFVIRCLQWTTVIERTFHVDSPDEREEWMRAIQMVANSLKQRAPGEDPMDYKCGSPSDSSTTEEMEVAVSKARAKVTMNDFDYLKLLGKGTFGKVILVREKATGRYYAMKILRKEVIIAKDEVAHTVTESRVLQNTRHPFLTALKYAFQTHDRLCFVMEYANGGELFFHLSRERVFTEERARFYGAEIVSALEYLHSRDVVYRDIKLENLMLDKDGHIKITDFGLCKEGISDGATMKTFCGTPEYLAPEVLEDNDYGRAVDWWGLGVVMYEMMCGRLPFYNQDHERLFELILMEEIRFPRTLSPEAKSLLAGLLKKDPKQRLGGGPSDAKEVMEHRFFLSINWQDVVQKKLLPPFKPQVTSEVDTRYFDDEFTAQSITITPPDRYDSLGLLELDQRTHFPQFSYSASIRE
Chain of UniProt Q5VT25 (whole entry, looked up): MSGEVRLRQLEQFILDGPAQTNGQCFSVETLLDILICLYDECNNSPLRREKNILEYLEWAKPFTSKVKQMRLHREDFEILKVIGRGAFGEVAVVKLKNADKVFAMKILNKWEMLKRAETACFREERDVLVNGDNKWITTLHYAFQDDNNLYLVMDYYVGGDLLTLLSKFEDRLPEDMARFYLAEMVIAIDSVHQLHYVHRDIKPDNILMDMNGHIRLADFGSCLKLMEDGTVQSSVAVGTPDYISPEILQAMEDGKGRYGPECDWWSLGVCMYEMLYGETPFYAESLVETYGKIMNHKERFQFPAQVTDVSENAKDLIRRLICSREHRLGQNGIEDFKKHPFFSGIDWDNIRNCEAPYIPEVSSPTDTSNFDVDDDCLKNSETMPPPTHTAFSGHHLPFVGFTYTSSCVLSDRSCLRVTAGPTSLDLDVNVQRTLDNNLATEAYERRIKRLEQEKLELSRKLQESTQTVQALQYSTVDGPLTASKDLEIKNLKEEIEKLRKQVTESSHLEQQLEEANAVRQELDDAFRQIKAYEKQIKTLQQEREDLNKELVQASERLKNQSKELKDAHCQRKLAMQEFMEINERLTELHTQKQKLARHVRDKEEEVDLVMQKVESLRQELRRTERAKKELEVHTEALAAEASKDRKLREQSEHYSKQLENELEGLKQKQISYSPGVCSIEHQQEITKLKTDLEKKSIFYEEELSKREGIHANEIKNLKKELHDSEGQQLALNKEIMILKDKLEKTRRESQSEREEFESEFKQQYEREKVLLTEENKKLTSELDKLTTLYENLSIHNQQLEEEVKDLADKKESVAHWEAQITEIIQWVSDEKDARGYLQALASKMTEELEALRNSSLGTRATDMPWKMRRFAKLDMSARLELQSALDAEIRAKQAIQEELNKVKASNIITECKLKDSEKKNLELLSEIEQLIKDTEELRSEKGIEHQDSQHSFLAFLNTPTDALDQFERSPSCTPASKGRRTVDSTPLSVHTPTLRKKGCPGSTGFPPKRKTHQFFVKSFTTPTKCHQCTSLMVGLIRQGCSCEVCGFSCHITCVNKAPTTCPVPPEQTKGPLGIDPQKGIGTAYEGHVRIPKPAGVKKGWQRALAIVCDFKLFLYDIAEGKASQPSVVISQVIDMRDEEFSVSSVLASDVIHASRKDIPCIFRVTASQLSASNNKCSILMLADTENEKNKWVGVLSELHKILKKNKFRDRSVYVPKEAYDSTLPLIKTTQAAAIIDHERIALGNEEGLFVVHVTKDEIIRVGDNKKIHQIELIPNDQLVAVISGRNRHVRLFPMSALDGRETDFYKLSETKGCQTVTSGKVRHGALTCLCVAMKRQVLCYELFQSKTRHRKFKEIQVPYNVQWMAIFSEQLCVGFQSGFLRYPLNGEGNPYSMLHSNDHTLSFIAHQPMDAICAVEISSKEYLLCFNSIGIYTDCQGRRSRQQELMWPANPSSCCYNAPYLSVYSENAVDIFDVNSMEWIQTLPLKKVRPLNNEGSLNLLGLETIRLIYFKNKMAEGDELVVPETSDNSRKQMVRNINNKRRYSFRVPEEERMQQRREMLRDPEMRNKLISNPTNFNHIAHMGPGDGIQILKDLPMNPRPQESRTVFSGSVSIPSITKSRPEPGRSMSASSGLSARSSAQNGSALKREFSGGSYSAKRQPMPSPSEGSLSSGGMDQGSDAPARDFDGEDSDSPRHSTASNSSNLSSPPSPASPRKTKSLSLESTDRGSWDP
Chain of UniProt P48736 (whole entry, looked up): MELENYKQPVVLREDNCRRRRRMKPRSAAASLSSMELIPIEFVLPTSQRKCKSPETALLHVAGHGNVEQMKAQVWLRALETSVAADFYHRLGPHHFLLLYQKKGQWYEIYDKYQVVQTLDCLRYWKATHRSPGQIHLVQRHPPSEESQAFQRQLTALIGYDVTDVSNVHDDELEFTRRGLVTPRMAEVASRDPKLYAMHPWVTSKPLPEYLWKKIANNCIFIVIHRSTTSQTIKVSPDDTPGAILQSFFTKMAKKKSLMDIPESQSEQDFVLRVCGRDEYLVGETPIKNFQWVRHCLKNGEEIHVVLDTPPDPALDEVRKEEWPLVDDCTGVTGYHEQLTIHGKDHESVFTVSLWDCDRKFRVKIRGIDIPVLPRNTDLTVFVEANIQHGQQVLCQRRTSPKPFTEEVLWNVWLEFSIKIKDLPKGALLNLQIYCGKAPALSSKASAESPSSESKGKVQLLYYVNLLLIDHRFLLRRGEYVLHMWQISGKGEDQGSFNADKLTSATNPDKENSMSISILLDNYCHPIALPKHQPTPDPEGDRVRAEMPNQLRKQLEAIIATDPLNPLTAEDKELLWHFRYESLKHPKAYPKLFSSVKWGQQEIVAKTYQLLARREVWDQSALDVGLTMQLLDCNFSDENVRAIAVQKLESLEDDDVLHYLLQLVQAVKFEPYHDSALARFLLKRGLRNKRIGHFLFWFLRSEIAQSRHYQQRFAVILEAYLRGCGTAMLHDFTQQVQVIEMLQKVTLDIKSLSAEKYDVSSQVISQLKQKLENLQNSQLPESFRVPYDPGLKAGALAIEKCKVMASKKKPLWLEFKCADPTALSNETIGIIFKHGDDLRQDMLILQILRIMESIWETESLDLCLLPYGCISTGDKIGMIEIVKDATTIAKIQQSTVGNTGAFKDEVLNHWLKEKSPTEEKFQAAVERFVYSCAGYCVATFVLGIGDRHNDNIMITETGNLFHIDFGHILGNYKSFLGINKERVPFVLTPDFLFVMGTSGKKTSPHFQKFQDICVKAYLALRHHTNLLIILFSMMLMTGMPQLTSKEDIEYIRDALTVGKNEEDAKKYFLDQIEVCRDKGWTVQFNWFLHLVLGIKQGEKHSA
Chain of UniProt Q9NSY1 (whole entry, looked up): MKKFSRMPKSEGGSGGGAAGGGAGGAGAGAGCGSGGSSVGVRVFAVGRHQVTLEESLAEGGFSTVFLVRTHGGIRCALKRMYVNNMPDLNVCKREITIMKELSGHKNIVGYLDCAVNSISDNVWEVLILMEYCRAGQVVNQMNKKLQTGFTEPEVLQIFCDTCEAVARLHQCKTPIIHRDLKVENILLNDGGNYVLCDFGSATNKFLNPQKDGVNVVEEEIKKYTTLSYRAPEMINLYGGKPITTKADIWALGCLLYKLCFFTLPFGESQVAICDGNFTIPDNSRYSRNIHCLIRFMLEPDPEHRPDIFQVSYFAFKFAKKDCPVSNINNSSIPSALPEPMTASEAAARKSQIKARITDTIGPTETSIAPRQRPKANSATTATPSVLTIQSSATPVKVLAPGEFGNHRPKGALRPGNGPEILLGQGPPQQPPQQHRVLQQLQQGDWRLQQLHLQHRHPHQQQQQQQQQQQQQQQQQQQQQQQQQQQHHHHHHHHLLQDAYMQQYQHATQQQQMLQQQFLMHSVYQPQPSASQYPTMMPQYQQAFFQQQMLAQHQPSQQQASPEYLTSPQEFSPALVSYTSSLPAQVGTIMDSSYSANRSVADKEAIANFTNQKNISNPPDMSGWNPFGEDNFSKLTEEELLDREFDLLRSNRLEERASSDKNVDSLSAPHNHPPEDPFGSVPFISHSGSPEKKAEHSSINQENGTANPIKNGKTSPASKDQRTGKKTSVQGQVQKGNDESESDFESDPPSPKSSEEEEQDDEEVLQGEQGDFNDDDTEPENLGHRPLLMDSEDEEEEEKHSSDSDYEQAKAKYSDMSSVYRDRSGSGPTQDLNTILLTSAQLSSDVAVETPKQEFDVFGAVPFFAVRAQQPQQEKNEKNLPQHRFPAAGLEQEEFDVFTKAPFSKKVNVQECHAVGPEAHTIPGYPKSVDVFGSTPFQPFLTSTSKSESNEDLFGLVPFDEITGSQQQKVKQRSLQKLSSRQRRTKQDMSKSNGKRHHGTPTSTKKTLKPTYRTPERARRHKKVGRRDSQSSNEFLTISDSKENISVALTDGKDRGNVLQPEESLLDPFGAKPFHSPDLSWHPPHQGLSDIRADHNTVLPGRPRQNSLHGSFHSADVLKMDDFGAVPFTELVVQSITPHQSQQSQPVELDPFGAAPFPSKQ

Study 1 — medium: plasma; route: oral
SMILES: COc1ccc(-c2c(Nc3ccccn3)[nH]c3c(C4=CCCCC4)c(-c4ccccc4)nn3c2=O)cc1
| method | host | dose | time | notes | plasma concentration, mean |
| --- | --- | --- | --- | --- | --- |
| LC-MS/MS | human | 50 mg once daily | 6 h | cycle 1 | 1610 ng/mL |
|  | human patients | 100 mg once daily | 4 h | cycle 1 | 3860 ng/mL |
| LC-MS/MS | human | 200 mg twice daily | 0.5 h |  | 10300 ng/mL |
|  | human patients | 400 mg once daily | 24 h | cycle 1 | 3520 ng/mL |
|  | human patients | 100 mg once daily | 3 h | cycle 1 | 4270 ng/mL |
| LC-MS/MS | human | 200 mg twice daily | 2 h |  | 13200 ng/mL |
|  | cancer patients | 400 mg | 72 h post-dose | single dose | 101 ng/mL |

Study 2 — Structure (SMILES): O=C(c1ccccc1)c1ccc(N2CCOCC2)cc1O; observed: enzyme activity; action: inhibitor; tested at: 0.5 µM; baseline: control
| target | remaining activity [%] |
| --- | --- |
| PNCK (Homo sapiens, UniProt Q6P2M8) | 101 |
| MAP2K1 (Homo sapiens, UniProt Q02750) | 98.1 |
| PAK3 (Homo sapiens, UniProt O75914) | 99.5 |
| MINK1 (Homo sapiens, UniProt Q8N4C8) | 91.1 |
| CLK3 (Homo sapiens, UniProt P49761) | 90.2 |
| MARK2 (Homo sapiens, UniProt Q7KZI7) | 107 |
| PRKG2 (Homo sapiens, UniProt Q13237) | 102 |
| MAPK11 (Homo sapiens, UniProt Q15759) | 99.3 |
| RPS6KA4 (Homo sapiens, UniProt O75676) | 105 |
| MAPK14 (Homo sapiens, UniProt Q16539) | 96.3 |
| TXK (Homo sapiens, UniProt P42681) | 98.5 |
| Cyclin-dependent kinase 9, with cyclin K (CDK9, Homo sapiens, UniProt P50750) | 97.8 |
| CLK4 (Homo sapiens, UniProt Q9HAZ1) | 101 |
| AKT2 (Homo sapiens, UniProt P31751) | 97.9 |

Study 3 — SMILES: O=C(Nc1ccccc1)Nc1cccc(Oc2ccc3nccn3n2)c1; tested at: 1 µM
| target | method | measured | notes | baseline | remaining binding [%] |
| --- | --- | --- | --- | --- | --- |
| ERN1 (Homo sapiens, UniProt O75460) | competitive binding panel |  |  | vehicle | 100 |
| CDC42BPA (Homo sapiens, UniProt Q5VT25) | competitive binding |  | MRCKA |  | 99 |
| PIK3CG (Homo sapiens, UniProt P48736) | competitive binding panel |  |  | vehicle | 94 |
| NTRK2 (Homo sapiens, UniProt Q16620) | competitive binding |  | TRKB |  | 100 |
| CDK4 (Homo sapiens, UniProt P11802) | competitive binding panel |  |  | vehicle | 100 |
| PIP4K2C (Homo sapiens, UniProt Q8TBX8) | competitive binding panel | PIP5K2C |  | vehicle | 52 |
| PIK3CA (Homo sapiens, UniProt P42336, E545A) | competitive binding panel |  |  | vehicle | 100 |
| SGK2 (Homo sapiens, UniProt Q9HBY8) | competitive binding panel |  |  | vehicle | 92 |

Study 4 — observed: cell-free assay; method: competition with immobilised ligand; tested at: 0.1 µM
Structure (SMILES): COCCOc1nc(-c2ccc(Cl)nc2)nc2c1CN(C(=O)c1ncn3ccccc13)CC2
| target | remaining binding [%] |
| --- | --- |
| FRK (Homo sapiens, UniProt P42685) | 100 |
| BTK (Homo sapiens, UniProt Q06187) | 100 |
| AKT2 (Homo sapiens, UniProt P31751) | 100 |
| BMP2K (Homo sapiens, UniProt Q9NSY1) | 90 |
| SNRK (Homo sapiens, UniProt Q9NRH2) | 79 |
| Tyrosine-protein kinase ABL1, phosphorylated (ABL1, Homo sapiens, UniProt P00519, F317L) | 100 |
| SGK1 (Homo sapiens, UniProt O00141) | 91 |
| CDK9 (Homo sapiens, UniProt P50750) | 100 |
